Published values of several laboratories.
Compare with care: the assays were run in different laboratories. Values joined by “and” are separate records of one study, mostly repeats; a detail may differ. ± gives the spread as reported.
GRB2: Growth factor receptor-bound protein 2 (GRB2, Homo sapiens, UniProt P62993)
HCRTR1: Orexin/Hypocretin receptor type 1 (HCRTR1, Homo sapiens, UniProt O43613)
Sequence of UniProt O43613 (whole entry, looked up): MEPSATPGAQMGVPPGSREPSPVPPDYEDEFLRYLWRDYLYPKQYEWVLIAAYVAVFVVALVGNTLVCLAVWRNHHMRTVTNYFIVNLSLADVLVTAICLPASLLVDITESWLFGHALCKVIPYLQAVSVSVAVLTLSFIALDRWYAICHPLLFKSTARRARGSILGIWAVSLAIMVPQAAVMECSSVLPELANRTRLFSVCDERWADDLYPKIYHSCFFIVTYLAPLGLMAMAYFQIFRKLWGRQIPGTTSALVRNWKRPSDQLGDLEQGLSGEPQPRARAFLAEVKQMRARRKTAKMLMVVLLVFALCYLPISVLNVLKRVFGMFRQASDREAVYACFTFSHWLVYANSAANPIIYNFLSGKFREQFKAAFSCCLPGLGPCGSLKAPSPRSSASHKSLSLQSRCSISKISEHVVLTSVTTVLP
Sequence of UniProt Q07954 (whole entry, looked up): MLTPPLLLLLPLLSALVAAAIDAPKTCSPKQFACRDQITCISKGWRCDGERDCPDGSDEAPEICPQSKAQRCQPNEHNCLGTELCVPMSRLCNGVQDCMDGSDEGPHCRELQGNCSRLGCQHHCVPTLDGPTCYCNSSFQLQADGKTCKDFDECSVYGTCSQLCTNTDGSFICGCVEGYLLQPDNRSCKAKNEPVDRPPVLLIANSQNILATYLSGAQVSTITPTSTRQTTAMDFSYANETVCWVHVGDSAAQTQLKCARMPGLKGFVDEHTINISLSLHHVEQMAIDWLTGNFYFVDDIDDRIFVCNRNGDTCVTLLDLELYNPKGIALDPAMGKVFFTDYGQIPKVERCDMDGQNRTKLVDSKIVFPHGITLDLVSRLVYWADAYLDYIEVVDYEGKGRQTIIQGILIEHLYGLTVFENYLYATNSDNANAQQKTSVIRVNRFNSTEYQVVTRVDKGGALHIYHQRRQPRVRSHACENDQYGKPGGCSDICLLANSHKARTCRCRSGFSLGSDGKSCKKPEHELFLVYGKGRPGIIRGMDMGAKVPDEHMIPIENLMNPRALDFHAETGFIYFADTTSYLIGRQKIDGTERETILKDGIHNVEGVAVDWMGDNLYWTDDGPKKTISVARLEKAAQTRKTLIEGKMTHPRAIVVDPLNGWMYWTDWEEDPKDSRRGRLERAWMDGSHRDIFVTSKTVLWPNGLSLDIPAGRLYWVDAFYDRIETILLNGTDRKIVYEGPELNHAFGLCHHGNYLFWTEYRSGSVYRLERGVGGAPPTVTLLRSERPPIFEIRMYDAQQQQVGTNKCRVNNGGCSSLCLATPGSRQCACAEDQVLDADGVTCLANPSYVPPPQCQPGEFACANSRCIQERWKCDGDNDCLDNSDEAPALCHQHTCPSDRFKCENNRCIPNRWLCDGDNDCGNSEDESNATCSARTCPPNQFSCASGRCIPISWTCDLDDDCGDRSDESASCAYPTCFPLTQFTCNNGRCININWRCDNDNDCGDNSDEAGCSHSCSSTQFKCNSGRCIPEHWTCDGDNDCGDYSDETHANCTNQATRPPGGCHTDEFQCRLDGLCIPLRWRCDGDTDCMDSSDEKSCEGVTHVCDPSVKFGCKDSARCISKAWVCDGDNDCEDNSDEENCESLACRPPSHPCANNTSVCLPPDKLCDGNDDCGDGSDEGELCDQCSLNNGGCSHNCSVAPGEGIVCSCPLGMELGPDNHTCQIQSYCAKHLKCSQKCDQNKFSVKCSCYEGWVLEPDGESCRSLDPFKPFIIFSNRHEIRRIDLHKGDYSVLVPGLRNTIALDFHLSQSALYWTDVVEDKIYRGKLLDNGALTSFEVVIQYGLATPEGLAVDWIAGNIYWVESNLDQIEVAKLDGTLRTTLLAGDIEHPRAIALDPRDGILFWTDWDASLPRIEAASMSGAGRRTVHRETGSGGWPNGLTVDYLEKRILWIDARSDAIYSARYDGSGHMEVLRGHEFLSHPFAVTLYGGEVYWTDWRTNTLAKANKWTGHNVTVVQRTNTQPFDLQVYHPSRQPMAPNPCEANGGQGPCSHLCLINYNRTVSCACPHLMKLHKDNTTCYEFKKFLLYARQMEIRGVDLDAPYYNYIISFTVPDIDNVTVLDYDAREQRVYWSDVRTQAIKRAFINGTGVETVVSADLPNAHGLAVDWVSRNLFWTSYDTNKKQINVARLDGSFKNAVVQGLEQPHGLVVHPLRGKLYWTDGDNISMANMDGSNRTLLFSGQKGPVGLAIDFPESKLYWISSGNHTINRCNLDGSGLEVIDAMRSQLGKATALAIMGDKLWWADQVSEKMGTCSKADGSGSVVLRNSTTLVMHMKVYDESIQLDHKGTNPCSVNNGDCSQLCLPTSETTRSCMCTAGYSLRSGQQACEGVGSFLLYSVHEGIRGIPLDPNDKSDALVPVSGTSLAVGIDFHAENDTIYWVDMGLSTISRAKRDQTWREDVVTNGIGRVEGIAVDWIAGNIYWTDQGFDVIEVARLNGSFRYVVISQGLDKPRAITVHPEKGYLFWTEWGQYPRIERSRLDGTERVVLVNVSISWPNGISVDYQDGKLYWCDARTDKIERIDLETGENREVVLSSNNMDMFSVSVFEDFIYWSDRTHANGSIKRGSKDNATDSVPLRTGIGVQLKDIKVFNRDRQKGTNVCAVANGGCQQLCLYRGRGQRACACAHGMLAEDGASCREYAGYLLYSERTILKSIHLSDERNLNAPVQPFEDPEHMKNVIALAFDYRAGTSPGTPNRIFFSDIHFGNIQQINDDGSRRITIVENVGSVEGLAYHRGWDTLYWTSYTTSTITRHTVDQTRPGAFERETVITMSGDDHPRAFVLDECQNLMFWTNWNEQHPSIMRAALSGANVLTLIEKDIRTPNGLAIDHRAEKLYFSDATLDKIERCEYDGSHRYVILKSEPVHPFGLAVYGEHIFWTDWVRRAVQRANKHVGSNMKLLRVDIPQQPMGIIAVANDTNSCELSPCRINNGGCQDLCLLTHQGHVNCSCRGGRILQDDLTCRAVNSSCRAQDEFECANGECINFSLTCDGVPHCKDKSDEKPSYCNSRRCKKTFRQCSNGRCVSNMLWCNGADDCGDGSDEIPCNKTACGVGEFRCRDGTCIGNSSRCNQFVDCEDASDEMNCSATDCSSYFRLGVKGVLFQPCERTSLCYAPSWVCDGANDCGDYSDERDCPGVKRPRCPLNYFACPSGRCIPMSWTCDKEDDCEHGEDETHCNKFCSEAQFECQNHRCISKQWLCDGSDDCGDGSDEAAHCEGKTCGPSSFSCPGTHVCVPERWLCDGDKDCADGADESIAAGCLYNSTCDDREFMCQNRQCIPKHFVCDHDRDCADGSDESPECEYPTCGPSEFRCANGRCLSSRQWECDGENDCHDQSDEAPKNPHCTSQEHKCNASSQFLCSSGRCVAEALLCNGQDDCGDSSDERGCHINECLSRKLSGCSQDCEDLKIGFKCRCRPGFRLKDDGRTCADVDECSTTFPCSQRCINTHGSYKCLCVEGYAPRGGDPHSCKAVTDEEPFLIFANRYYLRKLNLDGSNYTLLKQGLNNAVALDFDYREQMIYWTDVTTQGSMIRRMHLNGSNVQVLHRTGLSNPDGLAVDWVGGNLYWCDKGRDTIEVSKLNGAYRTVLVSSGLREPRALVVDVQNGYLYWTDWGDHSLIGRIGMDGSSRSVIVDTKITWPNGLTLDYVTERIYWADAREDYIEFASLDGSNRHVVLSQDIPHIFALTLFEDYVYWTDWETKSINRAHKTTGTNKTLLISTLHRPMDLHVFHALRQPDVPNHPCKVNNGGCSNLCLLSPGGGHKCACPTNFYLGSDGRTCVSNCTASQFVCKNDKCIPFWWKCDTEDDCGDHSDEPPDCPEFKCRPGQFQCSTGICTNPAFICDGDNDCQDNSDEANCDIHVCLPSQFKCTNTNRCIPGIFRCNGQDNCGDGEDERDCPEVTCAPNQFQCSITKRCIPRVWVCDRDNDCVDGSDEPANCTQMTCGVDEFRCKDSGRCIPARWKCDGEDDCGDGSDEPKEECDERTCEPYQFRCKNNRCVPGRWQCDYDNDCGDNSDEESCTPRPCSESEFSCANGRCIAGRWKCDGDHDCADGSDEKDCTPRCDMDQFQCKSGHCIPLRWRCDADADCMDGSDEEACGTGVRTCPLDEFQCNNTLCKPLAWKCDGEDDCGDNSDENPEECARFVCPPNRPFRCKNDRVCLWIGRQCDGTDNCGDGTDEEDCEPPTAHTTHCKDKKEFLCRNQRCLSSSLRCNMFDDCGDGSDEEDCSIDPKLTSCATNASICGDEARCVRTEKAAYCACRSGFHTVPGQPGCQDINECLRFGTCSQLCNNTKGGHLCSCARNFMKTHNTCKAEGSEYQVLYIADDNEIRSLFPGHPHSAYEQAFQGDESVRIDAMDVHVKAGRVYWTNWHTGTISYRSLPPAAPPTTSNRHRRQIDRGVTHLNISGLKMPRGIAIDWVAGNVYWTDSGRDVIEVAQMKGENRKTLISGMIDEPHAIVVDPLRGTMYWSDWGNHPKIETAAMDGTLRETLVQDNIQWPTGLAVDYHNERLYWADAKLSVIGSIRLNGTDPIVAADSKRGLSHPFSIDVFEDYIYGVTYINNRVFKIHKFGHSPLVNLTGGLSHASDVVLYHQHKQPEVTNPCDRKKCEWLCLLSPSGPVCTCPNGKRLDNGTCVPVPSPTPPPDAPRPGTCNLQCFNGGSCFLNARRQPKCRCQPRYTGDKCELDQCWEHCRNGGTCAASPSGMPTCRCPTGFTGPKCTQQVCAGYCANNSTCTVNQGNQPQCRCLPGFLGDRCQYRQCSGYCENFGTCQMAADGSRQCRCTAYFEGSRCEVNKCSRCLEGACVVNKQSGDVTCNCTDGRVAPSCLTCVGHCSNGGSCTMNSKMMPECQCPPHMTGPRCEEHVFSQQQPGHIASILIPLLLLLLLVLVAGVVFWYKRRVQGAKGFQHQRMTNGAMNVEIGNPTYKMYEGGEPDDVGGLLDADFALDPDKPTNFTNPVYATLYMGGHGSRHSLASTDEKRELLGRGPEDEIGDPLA
Sequence of UniProt P62937 (whole entry, looked up): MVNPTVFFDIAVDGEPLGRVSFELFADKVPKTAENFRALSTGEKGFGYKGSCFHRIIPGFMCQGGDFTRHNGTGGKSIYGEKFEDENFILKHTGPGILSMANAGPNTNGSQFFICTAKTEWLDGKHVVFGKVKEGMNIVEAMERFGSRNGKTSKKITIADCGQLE

Molecule | target | assay | system | setting | Kd
NC[C@@H]1O[C@H](O[C@H]2[C@@H](O)[C@H](O[C@@H]3[C@@H](O)[C@H](N)C[C@H](N)[C@H]3O[C@H]3O[C@H](CO)[C@@H](O)[C@H](O)[C@H]3N)O[C@@H]2CO)[C@H](N)[C@@H](O)[C@@H]1O | HIV-1 SL3 RNA stem-loop | binding, ESI-FTMS titration | – | pH 7.5 | 37.7 ± 1.3 µM
CC[C@H](C)[C@H](NC(=O)[C@@H](N)CC(=O)O)C(=O)N1CCC[C@H]1C(=O)N1CCC[C@H]1C(=O)N1CCC[C@H]1C(=O)N[C@@H](CCCNC(=N)N)C(=O)N1CCC[C@H]1C(=O)N[C@@H](C)C(=O)N[C@@H](CCCCN)C(=O)N1CCC[C@H]1C(=O)N[C@@H](Cc1c[nH]cn1)C(=O)N1CCC[C@H]1C(=O)O | GRB2 | binding, ITC | – | pH 8 | 968 µM
O=S(=O)(O)c1cccc2c(-c3ccc(Nc4ccccc4)c4c(S(=O)(=O)O)cccc34)ccc(Nc3ccccc3)c12 | uncharacterized protein (Drosophila suzukii, UniProt A0AB39ZCT4) | fluorescent probe titration | – | – | 0.812 µM
N#Cc1cccc(CN2CCc3ncn(Cc4ccc(Cl)cc4)c(=O)c3C2)c1 | CLPP (Homo sapiens, UniProt Q16740) | casein-FITC degradation, activator | – | – | 0.0322 ± 0.0063 µM
hyaluronan dodecasaccharide | human CD44 link domain | SPR | – | pH 7.4 | 55 µM
CC(C)C[C@H](NC(=O)[C@H](C)NC(=O)[C@H](CCCNC(=N)N)NC(=O)[C@H](CC(=O)O)NC(=O)[C@@H](NC(=O)[C@@H]1CCCN1C(=O)[C@@H]1CCCN1C(=O)[C@@H]1CCCN1)C(C)C)C(=O)N[C@@H](CCCCN)C(=O)N1CCC[C@H]1C(=O)N[C@@H](CC(=O)O)C(=O)N[C@@H](CCCNC(=N)N)C(=O)O | GRB2 | binding, ITC | – | pH 8 | 72 µM
COc1ccc(CC2c3cc(OS(=O)(=O)c4ccccc4)c(OC)cc3CCN2CC(=O)NCc2ccccc2)cc1OC (stereo not drawn) | HCRTR1 | – | – | – | 0.0305 ± 0.0091 µM
CN(C)[C@@H]1C(O)=C(C(N)=O)C(=O)[C@@]2(O)C(O)=C3C(=O)c4c(O)ccc(Cl)c4[C@@](C)(O)[C@H]3C[C@@H]12 | HIV-1 SL3 RNA stem-loop | binding, ESI-FTMS titration | – | pH 7.5 | 884 ± 300 µM
O=C(O)c1cc(Cc2ccc(NCc3ccccc3)c(C(=O)O)c2)ccc1NCc1ccccc1 | PPIA (Homo sapiens, UniProt P62937) | binding, SPR | – | pH 7.4 | 184 µM
CC1=C(/C=C/C(C)=C/C=C/C(C)=C/C=C/C=C(C)/C=C/C=C(C)/C=C/C2=C(C)C[C@@H](O)CC2(C)C)C(C)(C)C[C@H](O)C1 | GSTP1 (Homo sapiens, UniProt P09211) | surface plasmon resonance | – | 25 °C, 1:1 binding model | 0.14 ± 0.02 µM
NC(=O)C1=CN([C@@H]2O[C@H](COP(=O)(O)OP(=O)(O)OC[C@H]3O[C@@H](n4cnc5c(N)ncnc54)[C@H](O)[C@@H]3O)[C@@H](O)[C@H]2O)C=CC1 | Enoyl-ACP reductase (Thermus thermophilus, UniProt P83818) | substrate, stopped-flow reductive half-reaction | – | – | 300 µM
Nc1ncnc2c1ncn2[C@@H]1O[C@H](COP(=O)(O)OP(=O)(O)OP(=O)(O)O)[C@@H](O)[C@H]1O | parM (Escherichia coli, UniProt P11904) | cell-free assay | – | – | 0.9 µM
CC[C@H](C)[C@H](NC(=O)[C@H](Cc1ccc(O)cc1)NC(=O)[C@H](CCCCN)NC(=O)[C@H](CO)NC(=O)[C@@H](NC(=O)[C@H](Cc1c[nH]cn1)NC(=O)[C@H](CO)NC(=O)[C@@H]1CCCN1)[C@@H](C)CC)C(=O)N[C@@H](CC(C)C)C(=O)N[C@@H](CCCNC(=N)N)C(=O)N[C@@H](Cc1c[nH]c2ccccc12)C(=O)N[C@@H](CCCNC(=N)N)C(=O)N1CCC[C@H]1C(=O)N[C@@H](CCCCN)C(=O)O | Platelet-derived growth factor subunit B, homodimer (Homo sapiens, UniProt P01127) | binding, surface plasmon resonance | – | – | 0.2 µM
c1ccc2c(c1)ccc1nc3ccc4ccccc4c3cc12 | Cytochrome P450 1B1 (CYP1B1, Homo sapiens, UniProt Q16678) | binding, fluorescence | – | pH 7.4 | 1.6 µM and < 2.5 µM
CC(=O)O[C@H]1C(=O)[C@@]2(C)[C@H]([C@H](OC(=O)c3ccccc3)[C@]3(O)C[C@H](OC(=O)[C@H](O)[C@@H](NC(=O)c4ccccc4)c4ccccc4)C(C)=C1C3(C)C)[C@]1(OC(C)=O)CO[C@@H]1C[C@@H]2O | Cytochrome P450 2C8 (CYP2C8, Homo sapiens, UniProt P10632, K399R/R139K) | binding, equilibrium spectral titration | purified enzyme | pH 7.4, 25 °C, second site, two-site model, together with: 2 µM enzyme | 11.7 ± 7.6 µM
NC[C@@H]1O[C@H](O[C@H]2[C@@H](O)[C@H](O[C@@H]3[C@@H](O)[C@H](N)C[C@H](N)[C@H]3O[C@H]3O[C@H](CN)[C@@H](O)[C@H](O)[C@H]3N)O[C@@H]2CO)[C@H](N)[C@@H](O)[C@@H]1O | HIV-1 nucleocapsid-SL2 RNA complex | binding, ESI-FTMS | – | pH 7.5 | 1.9 ± 0.3 µM
COC(=O)[C@@H](N)CCCCN | LRP1, CR3 domain (Homo sapiens, UniProt Q07954) | binding, tryptophan fluorescence titration | isolated CR3 domain | pH 7.4, 298 K, ionic strength 0.02 | 220 ± 30 µM

Molecule | target | assay | system | setting | Kd
COc1ccc(CC2c3cc(OS(=O)(=O)c4ccc(C)cc4)c(OC)cc3CCN2CC(=O)NCc2ccccc2)cc1OC (stereo not drawn) | HCRTR1 | – | – | – | 0.118 ± 0.054 µM
O=[N+]([O-])c1ccc(C=Cc2ccc([N+](=O)[O-])cc2S(=O)(=O)O)c(S(=O)(=O)O)c1 | SLC4A1 (Homo sapiens, UniProt P02730) | chloride efflux, competitive inhibitor | human erythrocytes | pH 7.2, 0 °C, internal chloride 150 mM | 0.0485 µM
Nc1nc2ncc(CNc3ccc(C(=O)N[C@@H](CCC(=O)O)C(=O)O)cc3)nc2c(=O)[nH]1 | FOLR1 (Bos taurus, UniProt P02702) | binding, SPR | – | – | 11 µM
NC(=O)C[C@H](NC(=O)C1(NC(=O)[C@H](Cc2ccc(C(C(=O)O)C(=O)O)cc2)NC(=O)C(=O)O)CCCCC1)C(=O)NCCCc1cccc2c(O)cccc12 | Growth factor receptor-bound protein 2, SH2 (GRB2, Homo sapiens, UniProt P62993) | binding, SPR | – | – | 0.132 µM
CSCC[C@H](NC(=O)[C@H](CC(C)C)NC(=O)[C@H](CCCCN)NC(=O)[C@H](CCCCN)NC(=O)[C@H](Cc1c[nH]cn1)NC(=O)[C@H](CCCNC(=N)N)NC(=O)[C@H](CO)NC(=O)[C@@H](NC(=O)[C@H](CO)NC(=O)[C@H](CCC(N)=O)NC(=O)CNC(=O)[C@H](CCCCN)NC(=O)[C@H](CCCCN)NC(=O)[C@H](CO)NC(=O)[C@H](CCCCN)NC(=O)[C@H](CC(C)C)NC(=O)[C@H](Cc1c[nH]cn1)NC(=O)[C@H](CO)NC(=O)[C@H](Cc1ccc(O)cc1)NC(C)=O)[C@@H](C)O)C(=O)N[C@@H](Cc1ccccc1)C(=O)N[C@@H](CCCCN)C(=O)N[C@H](C(=O)N[C@@H](CCC(=O)O)C(N)=O)[C@@H](C)O | Protein S100-B (Homo sapiens, UniProt P04271) | binding, NMR line shape analysis | – | 35 °C, low salt | 1 ± 0.5 µM
CC[C@H](C)[C@H](NC(=O)[C@@H](N)CC(=O)O)C(=O)N1CCC[C@H]1C(=O)N1CCC[C@H]1C(=O)N1CCC[C@H]1C(=O)N[C@@H](CCCNC(=N)N)C(=O)N1CCC[C@H]1C(=O)N1CCC[C@H]1C(=O)N[C@@H](CCCCN)C(=O)N1CCC[C@H]1C(=O)N[C@@H](Cc1c[nH]cn1)C(=O)N[C@@H](C)C(=O)O | GRB2 | binding, ITC | – | pH 8 | 295 µM
c1ccc2nc3ccccc3cc2c1 | HIV-1 SL3 RNA stem-loop | binding, ESI-FTMS titration | – | pH 7.5 | 2.4 ± 0.3 µM
COc1ccc(CC2c3cc(OC)c(OC)cc3CCN2CC(=O)NCc2ccc(NC(C)=O)cc2)cc1OC (stereo not drawn) | HCRTR1 | – | – | – | > 10 µM
COC(=O)[C@H](CCCCN)NC(C)=O | LRP1, CR5 domain (Homo sapiens, UniProt Q07954) | binding, tryptophan fluorescence titration | isolated CR5 domain | pH 7.4, 298 K, ionic strength 0.02 | 1600 ± 150 µM
c1ccc(Nc2cccc3ccccc23)cc1 | chemosensory protein CSP2, Chilo suppressalis | binding, fluorescent probe, fluorescence titration | – | pH 7.4 | 8.88 µM
COc1ccc(CC2c3cc(OC)c(OC)cc3CCN2CC(=O)NCc2ccc(Cl)cc2)cc1OC (stereo not drawn) | HCRTR1 | – | – | – | 0.162 ± 0.016 µM
N=C(N)c1ccc(NCCCNc2ccc(C(=N)N)cc2)cc1 | CTG·CAG repeat hairpin DNA | fluorescence titration | – | 11 CTG·CAG repeats | 2.7 ± 0.4 µM
COc1ccc(CC2c3cc(OCC(F)(F)F)c(OC)cc3CCN2CC(=O)NCc2ccccc2)cc1OC (stereo not drawn) | HCRTR1 | – | – | – | 0.0094 ± 0.0017 µM
NC(=O)c1ccc[n+]([C@@H]2O[C@H](COP(=O)(O)OP(=O)(O)OC[C@H]3O[C@@H](n4cnc5c(N)ncnc54)[C@H](O)[C@@H]3O)[C@@H](O)[C@H]2O)c1 | phenylacetaldehyde dehydrogenase (Pseudomonas putida, UniProt Z9OS69Y4H5) | binding, NADH displacement fluorescence | – | pH 7.0, 25 °C, together with: NADH 50 µM | 48.7 ± 0.8 µM
COc1ccc(CC2c3cc(OCc4ccccn4)c(OC)cc3CCN2CC(=O)NCc2ccccc2)cc1OC (stereo not drawn) | HCRTR1 | – | – | – | 0.101 ± 0.056 µM
COC(=O)[C@@H](N)Cc1c[nH]cn1 | LRP1, CR8 domain (Homo sapiens, UniProt Q07954) | tryptophan fluorescence titration | – | pH 5.5, CR8 domain, low ionic strength | 290 ± 10 µM
